Experimental data gathered from unrelated publications.
Each line is one published result; not all experiments were run side by side. Numbers after ± are the reported error. Bridges are numbered along the chain shown (N, C = ends).
B1: disulfide; chain MRGSHHHHHHGSNEKGETSEKTIVRANGTRLEYTDIKSDGIEGRVDGGGGSDDDDKMACQPRNLNNCGGGS (disulfide 59-67 (inferred))

For `C[C@H](Cn1cnc2c(N)ncnc21)OCP(=O)(O)O`, the EC50 was 132 ± 20 µg/mL (human alphaherpesvirus 1; viral replication; HEL; 72 h).
With `NC(=O)c1ncn([C@@H]2O[C@H](CO)[C@@H](O)[C@H]2O)n1` the EC50 was 112 µM (Coxsackievirus B4; cytopathic effect; HeLa).
With `Cc1cn([C@H]2C[C@H](N=[N+]=[N-])[C@@H](CO)O2)c(=O)[nH]c1=O` the EC50 was 0.0022 µM (HIV-2; viral cytopathicity, MTT; MT-4, ROD).
`CC(C)c1cc2c(cc1O)[C@@]1(C)CCC[C@@](C)(C=O)[C@@H]1CC2` gave an EC50 of over 20.8 µM (human alphaherpesvirus 1; viral replication, plaque reduction; Vero; 72 h, pre-infection treatment).
`Cc1c(-c2ccc(-c3ccccc3F)cc2)nc2ccc(F)cc2c1C(=O)O` has an EC50 of 1.6 µM (human respiratory syncytial virus; viral replication; BEAS-2B).
For `Cc1c(C(=O)C(=O)NCc2cn(CCCCCCCCCCCCCCn3cc(CNC(=O)C(=O)c4c(C)c(C(=O)Nc5ccc(F)c(F)c5)n(C)c4C)nn3)nn2)c(C)n(C)c1C(=O)Nc1ccc(F)c(F)c1`, the EC50 was 3.13 µM (hepatitis B virus; viral replication, chemiluminescence immunoassay, item: secreted HBeAg; HBV-infected HepG2-NTCP cells; day 8 post-infection, daily from day 4 post-infection).
`C/C(=N\C#N)N(C)Cc1ccc(Cl)nc1` gave an EC50 of 0.1 mg/kg dry soil (Folsomia candida; reproduction, OECD 232; LUFA 2.2 soil; 28 days).
With `B1` the EC50 was 0.83 µM (Borrelia garinii; cyst to spirochete conversion, flow cytometry; SKT-7.1; 16 h).
`Cc1ccc(S(=O)(=O)N2C(=O)CSC2c2ccccc2)cc1` (stereo not shown) has an EC50 of over 125 µM (HIV-2; viral cytopathicity, MTT; MT-4, ROD).
`O=C(N[C@@H]1CCCc2c1[nH]c1ccc(Cl)cc21)c1ccccn1` gave an EC50 of 0.005 µM (Human papillomavirus 16; viral DNA level, hybrid capture, item: episomal HPV16 DNA; W12-20850; 96 h).
`Cc1ccc(S(=O)(=O)N2C(=O)CSC2c2ccccc2O)cc1` (stereo not shown) gave an EC50 of over 125 µM (HIV-2; viral cytopathicity, MTT; MT-4, ROD).
For `CNC(=O)c1ccc(-c2cnn3ccc(C(=O)N(C)c4ccc(Cl)c(C(=O)OC)c4)cc23)cc1`, the EC50 was 0.052 ± 0.013 µM (Cryptosporidium parvum; cytopathic effect; HCT-8; 48 h).
The EC50 of `O=C(Cc1csc2nc(-c3ccc(Br)cc3)cn12)NN=C1CCC(c2ccc(O)cc2)CC1` (stereo not shown) is reported as over 100 µg/mL (feline coronavirus; viral cytopathic effect; CRFK).
For `Nc1ncnc2c1ncn2[C@@H]1O[C@H](CO)C(O)C1(F)Br` (stereo in doubt), the EC50 was over 10 µM (hepatitis C virus; viral replication; Huh-7, genotype 1b replicon).
`Cc1oncc1C(=O)Nc1ccc(C(F)(F)F)cc1` has an EC50 of 72.6 µM (human coronavirus OC43; viral RNA, qPCR; Huh-7; 7 d).
`Cc1ccc(S(=O)(=O)N2C(=O)CSC2c2ccccc2Cl)cc1` (stereo not shown) has an EC50 of over 125 µM (HIV-2; viral cytopathicity, MTT; MT-4, ROD).
`N#Cc1nc(-c2ccccc2)oc1S(=O)(=O)c1ccc(Cl)cc1` has an EC50 of 0.051 ± 0.0037 µM (Leishmania amazonensis; alamarBlue; axenic amastigotes; 72 h).
With `CCOP(=O)(OCC)[C@@H]1C[C@@H](Cn2c(=O)n(C(=O)c3ccccc3)c(=O)c3ccccc32)ON1C` the EC50 was 10.7 to 13.2 µM (human alphaherpesvirus 3; plaque formation; HEL, TK-deficient 07-1).
For `C[C@H]1CN(c2n[nH]c3nc(N[C@H]4CC[C@H](NS(=O)(=O)CCC(F)(F)F)CC4)ncc23)CCO1`, the EC50 was 1.26 µM (Leishmania donovani; parasite growth; mouse; intracellular, amastigote).
For `COC(=O)N[C@H](C(=O)N1CCC[C@H]1c1ncc(-c2ccc(-c3ccc(-c4cnc([C@@H]5CCCN5C(=O)[C@@H](NC(=O)OC)C(C)C)[nH]4)cc3)cc2)[nH]1)C(C)C`, the EC50 was 4.9e-05 ± 1.3e-05 µM (hepatitis C virus; viral replication, transient replicon; genotype 1b replicon NS5A Y93H).
`Nc1ccn([C@@H]2O[C@H](CO)[C@@H](O)C2(F)F)c(=O)n1` gave an EC50 of 0.09 µM (human respiratory syncytial virus; viral replication; BEAS-2B).
The EC50 of `COc1cc([C@@H]2c3cc4c(cc3C(=O)[C@H]3COC(=O)[C@H]23)OCO4)cc(OC)c1OC` is reported as over 100 µM (Leishmania infantum; intracellular amastigote growth, iRFP fluorescence; infected mouse splenocyte explants; 48 h).
With `O=c1[nH]c(=O)c2ncn(C[C@@H](CF)OCP(=O)(O)O)c2[nH]1` the EC50 was over 329 µM (Human alphaherpesvirus 3; plaque formation, inhibitor; HEL).
`Cc1ccc(S(=O)(=O)N2C(=O)CSC2c2ccc(O)cc2)cc1` (stereo not shown) gave an EC50 of over 100 µM (herpes simplex virus 2; viral cytopathicity; HEL, G).
With `C/C(O)=C(\C#N)C(=O)Nc1ccc(C(F)(F)F)cc1` the EC50 was over 100 µM (human coronavirus OC43; cytopathic effect, CellTiter-Glo; Huh-7; 7 d).
For `CC1(C)N=C(N)N=C(N)N1c1cccc(C(F)(F)F)c1`, the EC50 was about 0.008 µM (human respiratory syncytial virus; cytopathic effect, microscopy; HeLa, Long).
`NC(=O)c1ncn([C@@H]2O[C@H](CO)[C@@H](O)[C@H]2O)n1` gave an EC50 of 183 µM (Coxsackievirus B4; viral cytopathic effect, visual CPE scoring; HEp-2).
The EC50 of `CN(C)CCNC(=O)c1cc(-c2cccs2)nc2ccccc12` is reported as under 1 µM (Enterovirus D68; viral replication; RD, US/KY/14-18953).
For `O=S(=O)(c1cccs1)N1CCCCN2[C@H](CO)[C@@H](c3ccc(/C=C/c4ccccc4)cc3)[C@@H]2C1`, the EC50 was 1.7 µM (Respiratory syncytial virus; cytopathic effect; A2).
For `O=c1[nH]c(=O)c2ncn(CC(CO)OCP(=O)(O)O)c2[nH]1` (racemic), the EC50 was 27.1 µM (Human alphaherpesvirus 3; plaque formation, inhibitor; HEL).
With `CCc1c(C)nc(-n2nc(C)cc2NC(=O)c2ccc(F)c(Cl)c2)[nH]c1=O` the EC50 was 0.02 ± 0.0009 µM (Leishmania amazonensis; alamarBlue; axenic amastigotes; 72 h).
The EC50 of `[H]/N=C(/N)NS(=O)(=O)c1ccc(N)cc1` is reported as 21 ± 5 µg/mL (Human gammaherpesvirus 8; latent viral DNA; BC-3).
The EC50 of `COc1cc([C@@H]2c3cc4c(cc3C[C@H]3COC(=O)[C@@H]32)OCO4)cc(OC)c1OC` is reported as over 100 µM (Leishmania infantum; parasite growth; promastigote).
The EC50 of `COc1ccc(Cn2c(SC(C)C(=O)Nc3ccc(C)cc3Cl)nc3ccccc32)cc1` (stereo not shown) is reported as 0.4 µM (Measles morbillivirus; viral replication; Alaska).
For `O=C(Nc1ccc2c(c1)B(O)OC2)c1ccccc1C(F)(F)F`, the EC50 was 0.22 ± 0.05 µM (Leishmania amazonensis; alamarBlue; axenic amastigotes; 72 h).
For `NC(=O)CCNC(=O)c1ccccc1S`, the EC50 was 15.7 µM (HIV-1; viral replication; human monocytes/macrophages, subtype B ADA, CCR5-tropic).
`Nc1ccn([C@@H]2CS[C@H](CO)O2)c(=O)n1` has an EC50 of 0.06 ± 0.007 µM (hepatitis B virus; viral replication; HepG2.2.15).
`O=c1[nH]cnc2c1ncn2[C@H]1CC[C@@H](CO)O1` gave an EC50 of 19 µM (HIV-2; viral cytopathicity, MTT; MT-4, ROD).
With `Cc1cc(C#N)cc(C)c1Oc1nc(NC2CCN(Cc3ccc(S(N)(=O)=O)cc3)CC2)nc2c1SCC2` the EC50 was 5.1 µM (HIV-2; viral replication; MT-4, ROD).
For `Cc1ccc(S(=O)(=O)N2C(=O)CSC2c2ccc(C(C)C)cc2)cc1` (stereo not shown), the EC50 was over 100 µM (herpes simplex virus 2; viral cytopathicity; HEL, G).
With `CC[C@H]1/C=C/C=C/C[C@@H](C)[C@H](O)[C@@](C)(O)C(=O)[C@@H](C)[C@H](O)[C@@H](C)C(=O)[C@@H](C)[C@H](O)[C@@H](C)/C=C/C(=O)O[C@@H]2[C@H](C)[C@H](CC1)O[C@]1(CC[C@H](C)[C@H](C[C@@H](C)O)O1)[C@H]2C` the EC50 was 17.8 ± 0.48 µM (Feline infectious peritonitis virus; viral replication, visual scoring; 48 h).
`CN[C@@H]1[C@H](O[C@@H]2OC[C@@H](O)[C@H](O)[C@H]2O)[C@@H](O)[C@H](O[C@H]2c3cc(C)c(C(=O)N[C@H](C)C(=O)O)c(O)c3-c3c(cc4c(c3O)C(=O)c3cc(OC)cc(O)c3C4=O)[C@@H]2O)O[C@@H]1C` has an EC50 of over 120 µM (feline coronavirus; viral cytopathicity, MTT; FCWF, 79-1683, serotype II; 48 h).
The EC50 of `Cc1ccc(S(=O)(=O)N2C(=O)CSC2c2ccccc2[N+](=O)[O-])cc1` (stereo not shown) is reported as over 100 µM (herpes simplex virus 2; viral cytopathicity; HEL, G).

Some of these lines once more:
The EC50 of `COc1ccc(Cn2c(SC(C)C(=O)Nc3ccc(C)cc3Cl)nc3ccccc32)cc1` (stereo not shown) is reported as 0.4 µM (Measles morbillivirus; viral replication; Alaska).
For `O=C(Nc1ccc2c(c1)B(O)OC2)c1ccccc1C(F)(F)F`, the EC50 was 0.22 ± 0.05 µM (Leishmania amazonensis; alamarBlue; axenic amastigotes; 72 h).
For `NC(=O)CCNC(=O)c1ccccc1S`, the EC50 was 15.7 µM (HIV-1; viral replication; human monocytes/macrophages, subtype B ADA, CCR5-tropic).
